Measured values pooled from the literature.
Each numbered part is a random draw from the data of one study; scales do not carry over between parts. Positions count from the first letter of the parent shown.

Sample 1
Target: RING finger protein unkempt homolog, zinc fingers 1-6, SBP tag (UNK, Homo sapiens, UniProt Q9C0B0, residues 30-357)
UniProt Q9C0B0, sequence (30-357, looked up): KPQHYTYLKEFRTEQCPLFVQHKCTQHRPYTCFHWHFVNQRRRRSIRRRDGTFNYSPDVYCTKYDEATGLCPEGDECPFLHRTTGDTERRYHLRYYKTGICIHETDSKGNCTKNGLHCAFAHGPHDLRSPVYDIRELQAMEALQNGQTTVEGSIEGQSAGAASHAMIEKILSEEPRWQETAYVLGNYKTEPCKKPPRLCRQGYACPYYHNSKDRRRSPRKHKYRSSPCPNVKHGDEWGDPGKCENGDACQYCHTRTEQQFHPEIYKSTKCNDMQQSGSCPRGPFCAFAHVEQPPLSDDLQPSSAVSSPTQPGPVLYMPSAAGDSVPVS
Method: RNA Bind-n-Seq
Form: RNA
Sample: in vitro
Concentration: 100 nM
Notes: RNA with constant flanks, vertebrate orthologous sites, ends assumed
Baseline: input RNA pool
Direction: higher = stronger binding
Oligonucleotide | bound/input enrichment
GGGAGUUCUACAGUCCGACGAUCGUGUUUUGGUACAAAGCUGUGUACCAAUACUCAUCUUCUUUACAUUAUACCAACUAACCUUAGAAAUAGGAAUUUAAUAUUUUUCAGAAUUUUACAUUGCUGUAUAUUCAAAAUUUUAAACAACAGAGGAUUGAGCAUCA | 0.657 ratio
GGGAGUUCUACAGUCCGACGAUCCAACUCCAUGGUUGAGGGCUCAGAACUCAAAAAGCUUCGCUCCAACUCUAGAAUCUACCACAGGUAUUUUUUGCUGGAUGCUGACAUGCAGAGCCUGAGGUGGGAACCAUCGAAGAAAGACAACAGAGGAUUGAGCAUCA | 0.135 ratio
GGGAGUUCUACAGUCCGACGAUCCUGUUUUGUGAAACAUGUCUACCCAGAAAAGUAGCAUUCUAUAAAUACUAUUAAACAACUUAGCUAUAUUAUUUUUAAGUAUUAAAUUAUAUGUCAAGCAGUUAAAGUGAAUUUCAGAGUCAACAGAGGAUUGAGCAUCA | 0.89 ratio
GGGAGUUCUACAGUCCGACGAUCGGUUUUUAAAAAUUUAUUGAGCAUAUAGCUUUGUGCUAAAGAUUGUGUUAGAUUUAAAAAUCCACAGAUUGGUUCUUCGUUGUUUUCAUUUUUGAAAAUAAAUAAAACUUUGAAUCUCAUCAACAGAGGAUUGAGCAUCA | 0.181 ratio
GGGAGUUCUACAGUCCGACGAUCGUCUUCUGGUACCACUCGAUGUACCAAUACUCAUCCUUUUUUCAUUAUACCAACUAUCGCUAGAAGUAGGAGUUCAAUAUUUUUAAAAGUUUUACAUUGCUGUAUAUUCAAAAUUUUCAACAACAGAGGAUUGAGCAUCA | 1.39 ratio
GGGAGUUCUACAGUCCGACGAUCGCCUUACACUUAAACUGGUAUUUUCAAACAAUAGGAAACUAUUUUCUUUUUUACAGUUUAGUGUGUAUCUGGCUUGUACAUGGAAGACUAAAAUGUUUGAUUUGCUAAAUAUGGUCUUUGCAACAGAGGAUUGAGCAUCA | 0.163 ratio
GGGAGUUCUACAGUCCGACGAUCAGCAGUUAGGGUGGGCCGUGCCUCUGCAUUUCCCAUGAGGAGAAAAGCCCAAAUCGAUGACACACAUUUCACACAUCUGAUGAUGAUCUUUUUGUUUUCUGCUUUUACGUAUGCAUCAAACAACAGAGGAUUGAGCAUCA | 0.347 ratio
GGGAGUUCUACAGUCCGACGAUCAUCCCUCAGUGACAGUAUGCCUUCUGUAGCAGAUUCCCACUCUAGUCAUUUUUCUGAAUUUAGUUGUUCUGACCUAGAAAGCAUGAAAACUUCCUGUAGUCAUGGUUCCAGUGAUUAUCACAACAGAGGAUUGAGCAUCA | 3.6 ratio
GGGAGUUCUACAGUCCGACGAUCUCCCCUCCCCUUAUGACAGGGAGUGGGGGGAGCUCAGGAUGACCCUCAACUGUUCCAAUCCAGUAUUUUUUUUUUCUUUUUAAAAGUUACUGUAUUUAUUAUGACGACGGUGACUCCCCGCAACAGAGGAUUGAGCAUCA | 0.609 ratio
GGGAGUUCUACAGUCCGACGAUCGGGACGCUUUGAUGUAAAAAUUGAAGUUAAGAGCUGAUCACAAGCACAAAUCCUCCCCACUAGCCAUUUAAUAAGUUAAAAAAUUACAAAAACAAAAACCUACUAGUCUUGAACAAACUGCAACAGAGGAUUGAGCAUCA | 8.32 ratio
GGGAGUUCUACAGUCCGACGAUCAGCAACCCAAGGAUUCAGGACUGGUUUUACAAAUAUACCAAGUAGAUAUGGAACUAACAAUAGAAUUGGACAACCAAGACCAUGACAUACUGUGAUUUAAUUUAUUUUAUGAGGAAUAUUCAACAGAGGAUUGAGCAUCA | 0.501 ratio

Sample 2
Target: CREB3L2, bZIP domain (human)
Method: DHFR protein complementation
Sample: yeast
Notes: single substitutions, most at no-binding floor
Baseline: wild-type JUN-FOS pair
Direction: higher = stronger binding
Starting sequence: JUN, bZIP domain (human); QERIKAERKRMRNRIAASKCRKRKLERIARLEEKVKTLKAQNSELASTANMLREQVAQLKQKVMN; partner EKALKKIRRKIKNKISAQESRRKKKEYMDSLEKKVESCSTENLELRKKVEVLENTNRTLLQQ
Variant | binding fitness
A57E | -1.39 natural log
R30A | -1.34 natural log
K34H | -1.51 natural log
L31F | -1.56 natural log
E33R | -1.48 natural log
A46Y | -1.52 natural log
A40K | -1.43 natural log
Q55T | -1.61 natural log
E44S | -1.5 natural log
E54A | -1.53 natural log
K39R | -1.42 natural log
R30E | -1.25 natural log
L31T | -1.51 natural log
A46F | -1.4 natural log
S47W | -1.42 natural log
M51G | -1.49 natural log
S43M | -1.55 natural log
S43C | -1.53 natural log
L52W | -1.43 natural log
N42I | -1.48 natural log
E54H | -1.26 natural log

Sample 3
Partner: ARF1 538-665 (Arabidopsis thaliana, UniProt Q8L7G0)
Method: two-hybrid
Baseline: out of 4 tests
Direction: higher = firmer interaction
B1: IAA31 (Arabidopsis thaliana, UniProt Q8H174); chain MEVSNSCSSFSSSSVDSTKPSPSESSVNLSLSLTFPSTSPQREARQDWPPIKSRLRDTLKGRRLLRRGDDTSLFVKVYMEGVPIGRKLDLCVFSGYESLLENLSHMFDTSIICGNRDRKHHVLTYEDKDGDWMMVGDIPWDMFLETVRRLKITRPERY
B2: IAA34 (Arabidopsis thaliana, UniProt Q9C5X0); chain MYCSDPPHPLHLVASDKQQKDHKLILSWKKPTMDSDPLGVFPNSPKYHPYYSQTTEFGGVIDLGLSLRTIQHEIYHSSGQRYCSNEGYRRKWGYVKVTMDGLVVGRKVCVLDHGSYSTLAHQLEDMFGMQSVSGLRLFQMESEFCLVYRDEEGLWRNAGDVPWNEFIESVERLRITRRNDAVLPF
B3: IAA33 (Arabidopsis thaliana, UniProt Q9FKM7); chain MNSFEPQSQDSLQRRFHQDNSTTQQPRDTTTPFIPKPASKNHNNSNSSSGAAGRSFQGFGLNVEDDLVSSVVPPVTVVLEGRSICQRISLDKHGSYQSLASALRQMFVDGADSTDDLDLSNAIPGHLIAYEDMENDLLLAGDLTWKDFVRVAKRIRILPVKGNTRQVKRNE
B4: IAA32 (Arabidopsis thaliana, UniProt Q8RYC6); chain MDPNTPADFFKGSSKFHTYYSQTKKGGGVIDLGLSLRTIQHETYLPPARMIGLDGYGELIDWSQPSYNSITQLKSEDTGHQRLAQGYYNNEGESRGKYAYVKVNLDGLVVGRKVCLVDQGAYATLALQLNDMFGMQTVSGLRLFQTESEFSLVYRDREGIWRNVGDVPWKEFVESVDRMRIARRNDALLPF
Construct (chain): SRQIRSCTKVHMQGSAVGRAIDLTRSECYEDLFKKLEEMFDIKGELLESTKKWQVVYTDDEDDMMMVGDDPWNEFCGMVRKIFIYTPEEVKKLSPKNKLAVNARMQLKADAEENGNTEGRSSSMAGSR
Molecule | positive tests
B1 (IAA31) | 2
B2 (IAA34) | 2
B3 (IAA33) | 0
B4 (IAA32) | 0

Sample 4
Target: CCNE1, cyclin fold, Cln2 fusion (human)
Method: yeast growth competition, sequencing
Sample: yeast
Notes: weak parent motif
Baseline: not given
Direction: higher = stronger binding
Starting sequence: SAMHD1 docking peptide (human); ASKSRVQLFKDDP
Variant | normalised enrichment score
ANKSRVQLFKDDP [S2N] | 0.102
ALKSRVQLFKDDP [S2L] | 0.105
ASCSRVQLFKDDP [K3C] | 0.344
ASKSRVQPFKDDP [L8P] | -0.191
ASKSRVQLFRDDP [K10R] | 0.39
ASKSWVQLFKDDP [R5W] | 0.406
ASKSRVRLFKDDP [Q7R] | 0.54
AKKSRVQLFKDDP [S2K] | -0.0969
ASKSRVQLFHDDP [K10H] | -0.0736
ASKSRVQLFVDDP [K10V] | 0.0788
ASKSRVQLFKPDP [D11P] | 0.194
ASKSRVQAFKDDP [L8A] | -0.19
ASMSRVQLFKDDP [K3M] | 0.065
ASKSVVQLFKDDP [R5V] | 0.343
ASKSRVQLFYDDP [K10Y] | -0.197
ASKSRLQLFKDDP [V6L] | 0.203
ASKSRVQLTKDDP [F9T] | -0.294
ASKSRGQLFKDDP [V6G] | 0.0133
ASKSRVPLFKDDP [Q7P] | -0.0264
ASKNRVQLFKDDP [S4N] | 0.311
ASKSRVQLFWDDP [K10W] | 0.316

Sample 5
Target: Ras GTPase-activating protein-binding protein 1, RRM domain (G3BP1, Homo sapiens, UniProt Q13283)
UniProt Q13283, sequence (whole entry, looked up): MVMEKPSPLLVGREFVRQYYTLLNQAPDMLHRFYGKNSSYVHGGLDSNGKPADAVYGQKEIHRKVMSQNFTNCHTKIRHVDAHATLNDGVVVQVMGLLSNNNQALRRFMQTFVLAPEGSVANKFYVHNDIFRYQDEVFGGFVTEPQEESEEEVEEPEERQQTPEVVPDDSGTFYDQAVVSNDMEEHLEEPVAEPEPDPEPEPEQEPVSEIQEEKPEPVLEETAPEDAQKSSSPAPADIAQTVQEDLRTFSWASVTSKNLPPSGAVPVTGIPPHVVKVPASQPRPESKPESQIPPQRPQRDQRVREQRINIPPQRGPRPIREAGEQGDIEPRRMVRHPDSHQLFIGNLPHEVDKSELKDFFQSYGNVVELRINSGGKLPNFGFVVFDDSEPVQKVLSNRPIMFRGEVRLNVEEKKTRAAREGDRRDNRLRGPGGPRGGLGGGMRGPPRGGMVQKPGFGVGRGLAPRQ
Method: RNA Bind-n-Seq
Form: RNA
Sample: in vitro
Concentration: 1 µM
Notes: whole 134-nt RNA, ends assumed
Added: 150 mM KCl
Baseline: input library
Direction: higher = stronger binding
Oligonucleotide | log2 enrichment
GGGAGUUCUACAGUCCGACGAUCCAAGUCCUGUGCUACACAUCGUAUGUACCGAAUCGGUUUUUGGUGGAAAAAAAGGAAAGUAUUAUGUUACGCCGUUCGGAUCUGCACUUCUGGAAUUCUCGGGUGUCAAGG | -0.198
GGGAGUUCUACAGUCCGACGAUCUGGCCCUGGUGGCAUGCGGGGAUGAAGAGGUGGCCUCAUGGAUCGUGGUGGUCCCGGUGGAAUGUUCAGAGGUGGCCGUGGUGGAGACAGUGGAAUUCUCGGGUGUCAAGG | 0.727
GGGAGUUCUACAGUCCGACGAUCCCUCAAGUCCUGUGCUACACAUCGUAUGUACCGAAUCGGGGCGGGCGGCGGGGAAAGUAUUAUGUUACGCCGUUCGGAUCUGCACUUCCAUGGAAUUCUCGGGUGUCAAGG | -0.16
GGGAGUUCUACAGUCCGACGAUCUGCUAGGACUUGAUGGAUCACUAGUUUUUCUGGUAAGUAAAACUAAUUUUUUUUUUUUUUUUUUGAGACGGAAUCUCACUCUGUCACCCAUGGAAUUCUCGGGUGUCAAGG | 0.563
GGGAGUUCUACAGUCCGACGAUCUCCUGUGCUACACAUCGUAUGUACCGAAUCGGGGUUUUUGGGGAAAGGGGUUUUUGGGGAAAGUAUUAUGUUACGCCGUUCGGAUCUGCAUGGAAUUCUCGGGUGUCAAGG | 1.14
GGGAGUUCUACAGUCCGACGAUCUGGGAGGUGGAUUUUGUUUAUUUUUUUAGCUCAUUGCCAGGGGUGGGAAUUUUUUUUUAAUAUGUGUCAUGAAUAAAGUUGUUUUUGAAAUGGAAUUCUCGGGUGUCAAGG | 1.8
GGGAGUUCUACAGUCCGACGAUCAAGUCCUGUGCUACACAUCGUAUGUACCGAAUCGGGAGGGAAAAAGGGUUUUUGGGAAAGUAUUAUGUUACGCCGUUCGGAUCUGCACUUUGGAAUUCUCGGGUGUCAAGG | 0.567
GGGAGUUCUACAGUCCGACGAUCCAAGUCCUGUGCUACACAUCGUAUGUACCGAAUCGGAGGAAAAAAAGGAAAAAGGAAAGUAUUAUGUUACGCCGUUCGGAUCUGCACUUCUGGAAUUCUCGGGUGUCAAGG | -0.164
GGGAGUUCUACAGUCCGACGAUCUUCAAGGAAAAACAAGAGGAGCAGGCUCGCCUCCUUGAUGAACUGGCAGGCAAGCUACAAAGCCUAGACCUUUCAGCCGCUGCCGAAAUGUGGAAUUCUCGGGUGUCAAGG | -0.151
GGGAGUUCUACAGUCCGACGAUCAGUCCUGUGCUACACAUCGUAUGUACCGAAUCGGCCCCCGGGGCCCCCGGGCCCCCGGAAAGUAUUAUGUUACGCCGUUCGGAUCUGCACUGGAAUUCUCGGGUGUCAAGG | -0.529
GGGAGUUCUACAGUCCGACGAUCCUCAAGUCCUGUGCUACACAUCGUAUGUACCGAAUCGGGGAGGGGAGGGAGGGAAAGUAUUAUGUUACGCCGUUCGGAUCUGCACUUCCAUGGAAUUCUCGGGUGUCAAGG | 0.734
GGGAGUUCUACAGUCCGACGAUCGUCCUGUGCUACACAUCGUAUGUACCGAAUCAAACCCCCAAACCCCCCCAAACCCAAAAAAGUAUUAUGUUACGCCGUUCGGAUCUGCACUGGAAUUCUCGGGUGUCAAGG | -0.129
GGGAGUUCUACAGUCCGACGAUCUGGCCCUGGUGGCAUGCGGGGAGGAAGAGGUGGCCUCAUGGAUCGUGGUGGUCCGGGUGGAAUGUUCAGAGGUGGCCGUGGUGGAGACAGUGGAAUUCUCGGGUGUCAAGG | 0.551
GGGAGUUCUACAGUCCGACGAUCUCAAGUCCUGUGCUACACAUCGUAUGUACCGAAUCGGUUUGGAGGUUUUUUUGGAAAGUAUUAUGUUACGCCGUUCGGAUCUGCACUUCCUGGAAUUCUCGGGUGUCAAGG | -0.216

Excerpt of the above (sample 2):
Variant | binding fitness
E54H | -1.26 natural log
K39R | -1.42 natural log
E44S | -1.5 natural log
A57E | -1.39 natural log
A46Y | -1.52 natural log
S43M | -1.55 natural log
